Measurements gathered from unrelated publications.
Each line is one published result; not all experiments were run side by side. ± gives the spread as reported.
Cell line: MDA-MB-468

SMILES = CC(NC1=NS(=O)(=O)c2ccc(Cl)cc2N1)c1ccccc1 (stereo not shown); observed = cell growth or viability; technique = MTS; time = 72 h; IC50 = 43.5 µM
SMILES = CC(C)Cc1ccc([C@H](C)C(=O)O)cc1; observed = cell growth or viability; technique = SRB; time = 72 h; IC50 = > 625 µM
SMILES = CCN(CC)CCCC(C)Nc1c2ccc(Cl)cc2nc2ccc(OC)cc12 (stereo not shown); observed = cell growth or viability; technique = MTT; time = 96 h; IC50 = 1.7 µM
SMILES = CC(=O)c1c(C)c2cnc(Nc3ccc(N4CCNCC4)cn3)nc2n(C2CCCC2)c1=O; observed = cell growth or viability; time = 6 days; IC50 = > 5 µM
SMILES = O=c1[nH]cc(F)c(=O)[nH]1; observed = cell growth or viability; technique = MTS; time = 72 h; IC50 = 6.83 µM
SMILES = C/C(=C\C(=O)N[C@H]1CCc2cccc3c2N(C1=O)[C@H](C(=O)N[C@H](C)CCC(N)=O)C3)c1ccc(C(F)(F)P(=O)(OCOC(=O)C(C)(C)C)OCOC(=O)C(C)(C)C)cc1; observed = cell growth; technique = MTT; time = 72 h; setting = 10% FBS; IC50 = ~30 µM
SMILES = Cc1c(-c2ccc(C(=N)N)cc2)oc(-c2ccc(C(=N)N)cc2)c1C; observed = cytotoxicity; technique = MTT; time = 3 h exposure, 96 h total; IC50 = 14 ± 2 µM
SMILES = O=S1(=O)N=C(NCc2ccc(OC(F)(F)F)cc2)Nc2ccccc21; observed = cell growth or viability; technique = MTS; time = 72 h; IC50 = 19.6 µM
SMILES = Nc1c2ccccc2nc2ccccc12; observed = cell growth or viability; technique = MTT; time = 96 h; IC50 = 1.1 µM
SMILES = CCCC[C@H](NC(=O)/C=C(\C)c1ccc(C(F)(F)P(=O)(OCOC(=O)C(C)(C)C)OCOC(=O)C(C)(C)C)cc1)C(=O)N1C[C@@H]2C[C@@H]2[C@@H]1C(=O)N[C@@H](CCC(N)=O)C(C)OCc1ccccc1 (stereo partly shown); observed = cell growth; technique = MTT; time = 72 h; setting = 10% FBS; IC50 = 10 to 15 µM

Some of these lines once more:
SMILES = O=c1[nH]cc(F)c(=O)[nH]1; observed = cell growth or viability; technique = MTS; time = 72 h; IC50 = 6.83 µM
